Published values of several laboratories.
Protocols differ between the studies behind these lines. ± marks the error that the study gave.
Chain of UniProt P11388 (whole entry, looked up): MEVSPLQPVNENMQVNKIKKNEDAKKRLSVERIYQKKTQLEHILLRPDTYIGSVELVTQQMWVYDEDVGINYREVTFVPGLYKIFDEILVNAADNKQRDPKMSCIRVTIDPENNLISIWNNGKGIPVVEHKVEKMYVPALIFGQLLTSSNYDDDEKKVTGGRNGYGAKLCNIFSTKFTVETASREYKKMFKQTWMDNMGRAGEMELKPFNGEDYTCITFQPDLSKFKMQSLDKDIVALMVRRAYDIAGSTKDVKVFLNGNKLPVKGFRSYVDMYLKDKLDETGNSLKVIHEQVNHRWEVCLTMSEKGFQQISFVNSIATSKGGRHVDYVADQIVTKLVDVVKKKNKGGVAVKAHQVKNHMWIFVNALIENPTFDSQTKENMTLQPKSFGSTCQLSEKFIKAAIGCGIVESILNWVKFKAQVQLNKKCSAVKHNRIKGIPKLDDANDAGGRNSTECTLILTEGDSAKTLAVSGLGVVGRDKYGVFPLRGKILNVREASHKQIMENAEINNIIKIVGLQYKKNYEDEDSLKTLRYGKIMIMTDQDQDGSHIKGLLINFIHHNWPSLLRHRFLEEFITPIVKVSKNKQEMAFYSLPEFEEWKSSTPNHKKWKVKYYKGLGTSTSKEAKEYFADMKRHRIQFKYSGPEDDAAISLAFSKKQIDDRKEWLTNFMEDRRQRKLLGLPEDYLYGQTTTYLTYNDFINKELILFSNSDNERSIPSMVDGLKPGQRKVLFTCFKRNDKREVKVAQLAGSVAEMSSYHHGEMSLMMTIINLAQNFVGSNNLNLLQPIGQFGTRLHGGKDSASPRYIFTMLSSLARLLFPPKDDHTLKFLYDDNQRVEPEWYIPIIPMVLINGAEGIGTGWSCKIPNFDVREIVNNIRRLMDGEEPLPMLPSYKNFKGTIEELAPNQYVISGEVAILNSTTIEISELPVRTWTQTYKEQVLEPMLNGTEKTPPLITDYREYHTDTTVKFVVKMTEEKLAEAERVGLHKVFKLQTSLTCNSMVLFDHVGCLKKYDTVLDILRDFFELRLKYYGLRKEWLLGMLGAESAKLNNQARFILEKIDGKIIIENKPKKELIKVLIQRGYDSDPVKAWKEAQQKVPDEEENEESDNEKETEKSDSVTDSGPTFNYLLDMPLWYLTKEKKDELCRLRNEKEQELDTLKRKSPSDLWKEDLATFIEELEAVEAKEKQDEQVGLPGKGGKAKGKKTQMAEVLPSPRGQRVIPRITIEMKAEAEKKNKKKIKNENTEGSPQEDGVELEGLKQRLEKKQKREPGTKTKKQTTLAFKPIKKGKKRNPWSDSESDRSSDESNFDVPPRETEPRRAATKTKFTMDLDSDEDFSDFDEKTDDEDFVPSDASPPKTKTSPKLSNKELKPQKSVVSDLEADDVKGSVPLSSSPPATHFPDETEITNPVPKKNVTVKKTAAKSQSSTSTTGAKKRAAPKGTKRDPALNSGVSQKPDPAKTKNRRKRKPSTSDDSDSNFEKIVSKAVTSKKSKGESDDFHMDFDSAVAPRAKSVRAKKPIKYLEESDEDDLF
Chain of UniProt P02769 (whole entry, looked up): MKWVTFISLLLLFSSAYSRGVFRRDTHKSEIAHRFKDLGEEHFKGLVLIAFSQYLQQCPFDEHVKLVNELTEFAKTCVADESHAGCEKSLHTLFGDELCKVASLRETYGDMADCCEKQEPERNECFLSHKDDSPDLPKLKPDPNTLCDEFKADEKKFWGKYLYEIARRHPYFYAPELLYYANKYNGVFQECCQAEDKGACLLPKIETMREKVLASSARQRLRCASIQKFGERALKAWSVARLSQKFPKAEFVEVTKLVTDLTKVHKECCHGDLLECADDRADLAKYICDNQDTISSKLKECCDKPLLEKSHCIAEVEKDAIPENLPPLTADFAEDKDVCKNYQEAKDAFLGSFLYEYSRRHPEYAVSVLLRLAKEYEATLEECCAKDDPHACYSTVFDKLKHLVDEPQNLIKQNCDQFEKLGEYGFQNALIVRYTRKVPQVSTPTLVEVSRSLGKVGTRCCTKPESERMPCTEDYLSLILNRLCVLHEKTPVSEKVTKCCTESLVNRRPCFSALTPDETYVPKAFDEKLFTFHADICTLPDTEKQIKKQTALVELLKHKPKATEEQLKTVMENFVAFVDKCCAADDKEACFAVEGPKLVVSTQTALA

| SMILES | target or system | test | test system | setting | scale | endpoint | value |
| --- | --- | --- | --- | --- | --- | --- | --- |
| CCn1c(=O)c(-c2cc(NC(=O)Nc3ccccc3)c(F)cc2Br)cc2cnc(NC)cc21 | – | item: injury and poisoning | healthy, matched to moderate impairment | 50 mg single dose | – | patients with grade 3+ TEAE | 0% |
| COC(=O)Nc1c(N)nc(-c2nn(Cc3ccccc3F)c3ncc(F)cc23)nc1N | – | – | healthy men | oral, dose not given, multiple dose, together with: sildenafil 100 mg | reference: with over without sildenafil | AUC ratio | 0.993 |
| COc1ccccc1CNC(=O)c1cc(S(=O)(=O)N2CCN(C)CC2)c(C)n1C | Replicase polyprotein 1ab, nsp14 (rep, Severe acute respiratory syndrome coronavirus 2, UniProt P0DTD1) | inhibitor | – | – | – | IC50 | > 6.25 µM |
| CC(C)(C(=O)N1CCOc2c(C#N)cncc2C1)C(F)F | – | item: injury, poisoning, procedural complications | human | oral, 15 mg twice daily, 14 days, multiple ascending dose | – | subjects with adverse event | 0% |
| COC(=O)Nc1c(N)nc(-c2nn(Cc3ccccc3F)c3ncc(F)cc23)nc1N | – | – | human, male, plasma | 10 mg, geometric mean, together with: digoxin | – | Cmax | 268 ng/mL |
| Fc1ccccc1Cc1nc(-c2nc(C(F)(F)F)n[nH]2)cn2ccnc12 | – | item: Dizziness | healthy humans | oral, 10 mg, fasted, single dose | – | subjects with adverse events | 7.1% |
| CCOc1ccc(-c2nc3ccc(-c4nc5ccc(N6CCN(C)CC6)cc5[nH]4)cc3[nH]2)cc1 | Albumin (ALB, Bos taurus, UniProt P02769) | – | PBS | 1 µM, 1 h, together with: 25 mg/mL albumin | – | fluorescence quantum yield | 0.115 ± 0.003 |
| N#CCC1CCN(c2nc(Nc3ccc(N4CCC(O)CC4)cc3)c3c(=O)[nH]ncc3n2)CC1 | – | Olink multiplex, item: CDCP1 | human, serum | 40 mg, day 15, unit not given | reference: placebo | serum level change | -1.27 |
| COc1cc([C@@H]2c3cc4c(cc3[C@@H](O[C@@H]3O[C@@H]5CO[C@@H](C)O[C@H]5[C@H](O)[C@H]3O)[C@H]3COC(=O)[C@H]23)OCO4)cc(OC)c1O | TOP2A (Homo sapiens, UniProt P11388) | DNA cleavage | – | 31.25 µM | – | mean linear DNA | 14.9% |
| [H]/N=C(/N)N/C(=N/[H])NCCc1ccccc1 | primary human hepatocytes | spare respiratory capacity, Seahorse OCR | – | 4 h | – | CC50 | 15 ± 5.2 µM |
| CO/N=C(\C(=O)N[C@@H]1C(=O)N2C(C(=O)O)=C(COC(C)=O)CS[C@H]12)c1csc(N)n1 | Salmonella enterica serovar Uganda | broth microdilution | clinical isolate RKI-No 206/14 | – | – | MIC | > 16 µg/mL |
| CC1COc2ccccc2N1C(=O)C(Cl)Cl (stereo not shown) | carboxylesterase | – | male rhesus monkey liver cytosol | 5 µM, 30 min, pH 7.4, without GSH | – | remaining compound | 78 ± 1% |
| O=C(Nc1nc2cccc(-c3ccc(CN4CCS(=O)(=O)CC4)cc3)n2n1)C1CC1 | – | item: injury or procedural complication | rheumatoid arthritis patients | oral, 300 mg once daily, 4 weeks, any relatedness | – | patients with adverse event | 5% |

Repeated from above:
| SMILES | target or system | test | test system | setting | scale | endpoint | value |
| --- | --- | --- | --- | --- | --- | --- | --- |
| COc1cc([C@@H]2c3cc4c(cc3[C@@H](O[C@@H]3O[C@@H]5CO[C@@H](C)O[C@H]5[C@H](O)[C@H]3O)[C@H]3COC(=O)[C@H]23)OCO4)cc(OC)c1O | TOP2A (Homo sapiens, UniProt P11388) | DNA cleavage | – | 31.25 µM | – | mean linear DNA | 14.9% |
